Measurements from different studies.
Each line is one published result; not all experiments were run side by side. pEC50, pIC50: −log10 of the molar value.
Organism: Trypanosoma brucei

For `CCCOC(=O)/C=C/c1ccc(O)c(O)c1`, the pIC50 was 6.10 (parasite growth; RHODESIENSE STIB900; 70 h, trypomastigote).
Under reporter fluorescence, `COc1cc2c(cc1-c1c(C)noc1C)ncc1[nH]c(=O)n([C@H](C)c3ccccn3)c12` is recorded as “increased” (flow cytometry; EP1/GFP reporter; 5 µM, 3 d).
With `Fc1ccc2[nH]c(NCCCNCc3cc(Cl)cc(Cl)c3)nc2c1` the EC50 ratio was 2 fold (bloodstream form; baseline: compound over 2).
`O=C(Nc1cc2nc(-c3ccc(F)c(F)c3)cn2cn1)N1CC[C@H](F)C1` gave a pIC50 of 6.68 (parasite growth; Squib 427 suramin-sensitive; 3 days).
The pIC50 of `O=C(Nc1ccc2c(c1)CN(c1ccc(F)c(F)c1)C2=O)N1CCN(c2ccc(Cl)cc2)CC1` is reported as 5.74 (parasite growth, resazurin; RHODESIENSE).
`CC(C)OC(=O)/C=C/c1ccc(O)c(O)c1` has a pIC50 of 6.00 (parasite growth; RHODESIENSE STIB900; 70 h, trypomastigote).
`CC(=O)OC[C@H]1O[C@@H]([Se][Se][C@@H]2O[C@H](COC(C)=O)[C@H](OC(C)=O)[C@H](OC(C)=O)[C@H]2OC(C)=O)[C@H](OC(C)=O)[C@@H](OC(C)=O)[C@H]1OC(C)=O` gave an inhibition of 37 to 97% (parasite growth, flow cytometry; 5 µM, 24 h).
`C[C@@H](Nc1c(-c2c(F)cc(C#N)cc2F)c(Cl)nc2ncnn12)C(C)(C)C` gave a pEC50 of 6.69 (parasite growth, SYBR Green; 72 h).
`COc1ccc(CONC(=O)C2OC(C)(C)OC2COP(=O)(OCOC(=O)C(C)(C)C)OCOC(=O)C(C)(C)C)c(OC)c1` (centres unmarked) gave a pIC50 of 4.41 (parasite growth, resazurin).
`COc1cc(O)c(-c2ccc(OC)c3c(OC)cc(C)cc23)c2c1[C@H](C)N(C)[C@H](C)C2` has a pIC50 of 4.82 (parasite growth; RHODESIENSE STIB900; trypomastigote).
`O=C(Nc1ccc2c(c1)CN(c1ccc(Cl)cc1)C2=O)N1CCN(c2ccc(F)cc2)CC1` has a pIC50 of 6.10 (parasite growth, resazurin; RHODESIENSE).
`Cc1nc(C(=O)N2CCC[C@H]2C(=O)N[C@@H](CCC(=O)O)C(=O)N[C@@H](CC(C)C)C(=O)NC(C)(C)C(=O)N[C@@H](CC(C)C)C(=O)N[C@@H](CC(C)C)C(=O)NC(C)(C)C(=O)NC(C)(C)C(=O)NCCC(=O)NC2(CN(C)C)CCC2)co1` has a pIC50 of < 6.00 (parasite growth, resazurin; 72 h).
For `O=C(Nc1ccc2c(c1)CN(c1ccc(Cl)c(Cl)c1)C2=O)N1CCN(c2ccccc2)CC1`, the pIC50 was 5.68 (parasite growth, resazurin; RHODESIENSE).
With `CCCCOC(=O)/C=C/c1ccc(O)c(O)c1` the pIC50 was 6.46 (parasite growth; RHODESIENSE STIB900; 70 h, trypomastigote).
For `O=C(Nc1cc2nc(-c3ccc(F)c(F)c3)c(CO)n2cn1)N1CC[C@H](F)C1`, the pIC50 was 5.92 (parasite growth; Squib 427 suramin-sensitive; 3 days).
`O=C(Nc1ccc2c(c1)CN(c1ccc(Cl)cc1)C2=O)N1CC[C@H](F)C1` gave a pIC50 of < 4.19 (parasite growth, resazurin; RHODESIENSE).
For `C[C@H](Nc1c(-c2c(F)cc(OCCCN)cc2F)c(Cl)nc2ncnn12)C(F)(F)F`, the pEC50 was 6.90 (parasite growth, SYBR Green; 72 h).

Excerpt of the above:
With `Fc1ccc2[nH]c(NCCCNCc3cc(Cl)cc(Cl)c3)nc2c1` the EC50 ratio was 2 fold (bloodstream form; baseline: compound over 2).
`COc1cc(O)c(-c2ccc(OC)c3c(OC)cc(C)cc23)c2c1[C@H](C)N(C)[C@H](C)C2` has a pIC50 of 4.82 (parasite growth; RHODESIENSE STIB900; trypomastigote).
